Measured values pooled from the literature.
Parts stem from different laboratories: compare values within a part only. Positions count from the first letter of the parent shown.

Study 1 — technique: protein binding microarray; form: double-stranded DNA, one strand shown; sample: in vitro; tested at: not given; relative to: not given; reading: higher = stronger binding
Target: Histone acetyltransferase KAT6A, both winged helices, GST fusion (KAT6A, Homo sapiens, UniProt Q92794, residues 1-181)
Setting: 8-mer, flanks averaged, mean of 2 arrays, mostly near background
Residues (chain): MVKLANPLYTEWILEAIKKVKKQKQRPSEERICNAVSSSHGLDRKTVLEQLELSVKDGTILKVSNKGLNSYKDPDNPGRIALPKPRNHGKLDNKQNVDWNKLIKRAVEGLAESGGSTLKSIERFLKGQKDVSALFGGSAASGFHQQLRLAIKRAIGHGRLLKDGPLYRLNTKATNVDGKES
Strand	E-score
CTACTAGA	-0.171
CAACGTCG	0.0061
GCGCCGTA	0.363
AATTCGAA	-0.156
ACCCGGGT	0.371
ACTCTACG	-0.0518
CACGCCAA	0.00844
GACCAGTA	-0.0192

Study 2 — technique: protein-binding microarray; form: double-stranded DNA, one strand shown; sample: in vitro; tested at: not given; reading: higher = stronger binding
Target: Microphthalmia-associated transcription factor, full length (MITF, Homo sapiens, UniProt O75030-10, residues 1-413)
Setting: k-mer, scored over probes, only values ≥0.25
Residues (chain): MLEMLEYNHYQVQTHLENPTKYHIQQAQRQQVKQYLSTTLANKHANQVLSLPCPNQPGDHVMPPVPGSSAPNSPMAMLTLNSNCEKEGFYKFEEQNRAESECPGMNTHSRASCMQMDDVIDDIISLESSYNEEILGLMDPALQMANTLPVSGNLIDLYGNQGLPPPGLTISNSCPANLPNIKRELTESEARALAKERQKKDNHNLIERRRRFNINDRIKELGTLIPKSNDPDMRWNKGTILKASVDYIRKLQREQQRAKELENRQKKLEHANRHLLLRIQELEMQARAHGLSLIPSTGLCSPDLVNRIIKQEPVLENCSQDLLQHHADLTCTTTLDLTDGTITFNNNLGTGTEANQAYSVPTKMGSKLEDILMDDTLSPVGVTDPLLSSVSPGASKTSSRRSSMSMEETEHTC
Strand	E-score
CATGCGG	0.324
ACATGAT	0.406
ATGACTC	0.285
ACGTGGG	0.312
CGTCACA	0.289
CTCATGA	0.39
ACACGCG	0.397
ATGACTG	0.32

Study 3 — target: CCNA2, cyclin fold, Cln2 fusion (human); technique: yeast growth competition, sequencing; sample: yeast; setting: strong parent motif; relative to: not given; reading: higher = stronger binding
Starting sequence: CDC6 docking peptide (human); TLKGRRLVFDNQL; partner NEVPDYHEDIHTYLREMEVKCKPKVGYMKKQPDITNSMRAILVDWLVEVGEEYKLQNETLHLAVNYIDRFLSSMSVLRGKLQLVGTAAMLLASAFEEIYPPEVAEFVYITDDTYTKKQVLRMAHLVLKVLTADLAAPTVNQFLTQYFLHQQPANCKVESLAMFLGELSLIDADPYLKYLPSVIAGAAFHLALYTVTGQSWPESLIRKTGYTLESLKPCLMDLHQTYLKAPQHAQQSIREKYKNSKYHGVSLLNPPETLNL
Change	normalised enrichment score
TLKGRRYVFDNQL [L7Y]	1.77
TLKGRRLVFDAQL [N11A]	3.19
TLKGRRNVFDNQL [L7N]	0.373
TLKGRRLVDDNQL [F9D]	0.639
TLKGRRLVFGNQL [D10G]	0.994
TLKGRRLVFDPQL [N11P]	2.58
TLKGKRLVFDNQL [R5K]	2.27

Further values, each from its own experiment
Substance	target	test	system	conditions	how to read	endpoint	result
PhoQ, residues 284 288 289 292 302 303 AGCYAI	PhoP, residues 12 14 15 18 19 SMASL (Escherichia coli, UniProt P23836)	Sort-seq, measured: YFP reporter	E. coli	PhoQ-PhoP variant library, added: 10 µM Mg2+	relative to: high Mg2+ state, higher = stronger signaling	fold induction	0.738

Some of these lines once more (study 3):
Change	normalised enrichment score
TLKGRRLVFDAQL [N11A]	3.19
TLKGRRLVFGNQL [D10G]	0.994
